# Measurements from different studies.
# Every numbered part comes from another study and shows a few of its results, in no order. Positions count from the first letter of the parent shown.

# Set 1 — method: protein-binding microarray; molecule type: double-stranded DNA, one strand shown; matrix: in vitro; tested at: 2200 nM top; setting: 60-bp whole probe; with: salmon DNA 0.4 mg/ml; baseline: random background probes; direction: higher = stronger binding; shared flanks, not repeated: GCCTAGCAC … GTCTTGATTCGCTTGACGCTGCTG
# Target: Interferon regulatory factor 7, full length, phosphomimetic (IRF7, Homo sapiens, UniProt Q92985, residues 1-503, S471D/S472D/S475D/S476D/S477D/S483D/S484D/S487D)
# Construct (chain): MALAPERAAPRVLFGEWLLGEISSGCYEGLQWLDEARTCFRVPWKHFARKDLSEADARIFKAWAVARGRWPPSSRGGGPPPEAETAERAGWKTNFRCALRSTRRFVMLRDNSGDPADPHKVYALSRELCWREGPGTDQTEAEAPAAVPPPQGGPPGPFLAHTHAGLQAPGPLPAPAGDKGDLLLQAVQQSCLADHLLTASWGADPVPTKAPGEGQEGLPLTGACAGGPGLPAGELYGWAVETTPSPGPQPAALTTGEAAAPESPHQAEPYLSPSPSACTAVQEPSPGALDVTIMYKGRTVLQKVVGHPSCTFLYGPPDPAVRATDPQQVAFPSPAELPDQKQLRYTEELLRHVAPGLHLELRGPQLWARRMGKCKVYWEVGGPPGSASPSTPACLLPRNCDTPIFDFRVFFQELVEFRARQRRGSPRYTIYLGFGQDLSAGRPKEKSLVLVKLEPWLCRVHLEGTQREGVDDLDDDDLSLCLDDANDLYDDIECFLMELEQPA
Sequence,fitted relative affinity [z-score]
GACGGTATCAGGACTGGGGACGTGCTA,-0.465
GACGGATTCCTTATCCTGACGTGCTAG,1.34
TTAGGTCTCGGTATGGGTTAGTGCTAG,0.593
TTTGGTATCGGGTATCGGTTAGTGCTA,1.35
TCTTTTTTTTCTTTAAAAGTGTGCTAG,1.58
CCAGTTGAGCACAGGAAAGTGTGCTAG,0.289
GACGGTTTCAACACTGGGGACGTGCTA,0.793
TTAGATTTCGGACTGGGTTAGTGCTAG,1.25
GCAGGAGAGACAGAAGTTATGTGCTAG,-1.05
GACGGTTTCGGTATCAGGACGTGCTAG,7.26
CAAAGAAAAAGAAAAAAAAAGGTGCTA,-1.74
TCAAGGTTCTCTTTTATACTGTGCTAG,0.749
TCCACTTTGACTTAAGAGGCGTGCTAG,0.854
TTAGATATCGGGTTTTGATTAGTGCTA,0.661
TCAAGTTTGTAAATCTTACTGTGCTAG,-0.0269
GACGGTTTCGGACTGCGGACGTGCTAG,4.2
TCACTTTCCTTCTTGAAACTGTGCTAG,5.51
TTAGCTTCCGGTTTCGGTTAGTGCTAG,8.22
TAGGCTCTGTGCTTTCCTGATGTGCTA,0.724
TTAGATATCGGTTTCGATTAGTGCTAG,5.15

# Set 2 — method: Spec-seq; molecule type: double-stranded DNA, one strand shown; matrix: in vitro; tested at: not given; setting: whole probe, mean of replicates; baseline: not given; direction: lower = stronger binding; shared flanks, not repeated: GAGTCGTCTCGTCAGCAC … CCGTAGAGCACTCAGGTC
# Target: POU, POU domain (Salpingoeca helianthica)
# Target sequence (chain): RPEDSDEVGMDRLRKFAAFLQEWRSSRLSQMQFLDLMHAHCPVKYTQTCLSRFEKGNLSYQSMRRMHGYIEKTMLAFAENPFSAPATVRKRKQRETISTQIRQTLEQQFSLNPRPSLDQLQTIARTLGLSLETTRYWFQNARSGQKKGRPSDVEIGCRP
Sequence,relative binding energy [ln ratio]
CAGCTAAT,0.79
ATAAATAT,-0.109
ATTACAAT,0.382
ATGCAAGT,1.18
ATTTTGAT,0.821
CGAATAAT,0.266
GCTGTAAT,0.48
ATATAAAT,0.553
ATGCCCGT,1.28
ATGCGCTG,0.835
AACTTAAT,0.324
CTTATAAT,0.299
CTACTAAT,0.542
CATTTAAT,-0.859
ATATTAAT,-0.193
GGCCTAAT,0.592
ATGCCCAT,1.34
GAAATAAT,0.444
ATCTCGAT,1.04
GCAGTAAT,0.651

# Set 3 — method: DHFR PCA, deep sequencing; matrix: yeast; with: (+)-ABA 0.0091 µM; baseline: wild-type fitted maximum; direction: higher = stronger binding
# Target: ABI1, truncated, D143A, DHFR fusion (Arabidopsis thaliana)
# Setting: methotrexate growth selection, single substitutions
# Parent: PYL1, truncated, DHFR fusion (Arabidopsis thaliana); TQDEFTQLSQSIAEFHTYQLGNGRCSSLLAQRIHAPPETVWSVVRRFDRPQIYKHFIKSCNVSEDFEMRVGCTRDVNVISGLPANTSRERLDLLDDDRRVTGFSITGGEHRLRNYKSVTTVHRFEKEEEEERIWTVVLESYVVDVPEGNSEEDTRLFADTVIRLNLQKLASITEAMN
Change,relative binding score
L112M,4.48%
G148H,-0.74%
L20E,30.2%
I57H,-1.67%
Q19M,4.8%
G148V,1%
L28V,50.8%
P146N,15%
Q7F,25.7%
N165F,-0.866%
L169V,-2.9%
D65T,3.49%
S87D,4.25%
L20S,36.3%
R88I,36.9%

# Set 4 — method: RNA Bind-n-Seq; molecule type: RNA; matrix: in vitro; tested at: 365 nM; baseline: no-protein control; direction: higher = stronger binding
# Target: RNA binding protein fox-1 homolog 2, RRM domain, GST-SBP tag (RBFOX2, Homo sapiens, UniProt O43251-10, residues 100-194)
# Setting: natural RNA segment, single round, ends assumed
# Shared flanks, not repeated: GGGAGUUCUACAGUCCGACGAUC … UGGAAUUCUCGGGUGCCAA
# Residues (chain): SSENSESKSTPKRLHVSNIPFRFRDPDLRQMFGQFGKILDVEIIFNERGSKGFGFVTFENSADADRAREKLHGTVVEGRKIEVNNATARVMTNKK
Sequence,RBNS enrichment (R)
UAAGCUCUGUUACACUAGGUGUUAGAGUUCCAGAAUGUUCUUUUGUUUGCUAAACCUUGAAGAAACAUGUGCCUCAGCCUAGAUGUUUUGUCUUCUCUUUUCUGCACUUA,0.595
CAUUUAAAAUUGUAAUAGAUCUUAACCAUUUUCCCCCUCACCCUAACUCUCUUAUUCUGCCGCCACAAUGCAAGCAUAGUUUGAUGUUUUCGUUAUUGCCUUUUUUGAGA,0.819
GUGGGAGGUCAAGUGGGGAAGUUGGUGAAUGUGGAAUAACUUACCUUUGUGCUCCACUUAAACCAGAUGUGUUGCAGCUUUCCUGACAUGCAAGGAUCUACUUUAAUUCC,0.948
UGGUUUUGAAAGUCUCUUCUCUGUAUAUUCCUACCCUGCAUUUGCUUUGUGUGGUGCUGAUGCUGUGCGCAGUAGGAUUCUUGGAUGACUCUCCAUCAGUCACAGACUCC,1.14
AGCUUGGGAAUACGUCACCUGAGAUCACAGGUGAUCCAAGCCGCAGAUGUGACAGCUGGGCUCUGAAGCUAUUUCUGUGUGUGGAGGGAGACAGGAAAGGGUGCUGUGCU,1.07
GUAUGGAUGUGCACAGUAUGUUUGAUUUUUAUCCACAAGAAUGAAUCUGAUUCAGAAUGCUUUUCUCAGCUGACAUACAGAGCACUAAAUAUUUUAAGGCAAGUCCAUAG,0.717
CAUCUCUCCCACCCGGCUCUAGGCCAAAAGGCUCGGUACCUCCUUACUGGGAGCCACGUAAAUGGAACCUUGACCAUAUUUCUGCAAUAAACAGUUUAAUUUGUGUCUUU,0.24
AGUUCCCCAGGCGCUGUAGACACAACAUGAAUCGGGCUCUCUGCUCUCUCCUUAGGGAGCUCGAGUCCUGGUGGGGAGAACAGGAGUAAACAAGGACUUGACAAAGCUGA,0.402
UCGGGAGGGAGGCAGGGGCAGGCGGAUUUCUAAAUUCCAGGACAGCCUGGGCUAUACAGAGAAACCCUGUCUUGAACCCCCCCCCCCCCCGCCACCCCCAAAAAAAGGUU,0.261
CGUGUAUAAACGUUUUCAGGGAAUGCAGAAGGUAUUAAUGAAGAGACAAAACCUUUAUUCCAUGUGCUUUGCUUCAUUCUGUACAUAGCUCUUUGGCUCGUGAACCUAAU,0.367
UUUGUUUGUCACCUCUAUUUAGUUGUUACCUGUUUCUCUCUUCUUUCACCCCUUGUCCUUUUCCACCCUUUUAAGAGUUACGCUAGCAGAUCUUACUCCACGUAUACUUU,0.767
CUGGGCAUAGCAGAGUUCAACGAGGUUUCUACAGAAAAGUGCAAUCUUUGUUGUUUUUGUAUUUAUUUGUAUGUUCAGAUCCAAAGGAUCCGUUGUAAAAAUAUAUAUGU,0.437

# Set 5 — target: CCND2, cyclin fold, Cln2 fusion (human); method: yeast growth competition, sequencing; matrix: yeast; setting: weak parent motif; baseline: not given; direction: higher = stronger binding
# Parent: WEE1 docking peptide (human); HKTFRKLRLFDTP
Change,normalised enrichment score
T12P,-0.318
D11M,0.099
R8I,0.561
P13N,0.7
D11Q,0.858
F4H,0.389
L7C,0.578
K2Q,0.608
H1G,0.303
F10Y,-0.233
R5C,-0.629
R8W,0.697
L7K,0.336
L7G,0.982
P13D,0.263
L7R,-0.0692
T3H,-0.132
T3F,-0.24
P13E,-0.201
R8V,0.113
P13T,0.446
T12S,0.253
K2D,0.238
T3M,-0.324
L7Y,-0.0257

# Mixed results
Substance,target,test,test system,setting,how to read,measurement,value
"PhoQ, residues 284 288 289 292 302 303 ALAMYF","PhoP, residues 12 14 15 18 19 GHCSL (Escherichia coli, UniProt P23836)","Sort-seq, measured: YFP reporter",E. coli,"PhoQ-PhoP variant library, with: 10 µM Mg2+","baseline: high Mg2+ state, higher = stronger signaling",fold induction,18.6
